Measurements from different studies.
Every numbered part comes from another study and shows a few of its results, in no order. Changes are numbered by the printed parent chain.
UniProt Q01959, sequence (whole entry, looked up): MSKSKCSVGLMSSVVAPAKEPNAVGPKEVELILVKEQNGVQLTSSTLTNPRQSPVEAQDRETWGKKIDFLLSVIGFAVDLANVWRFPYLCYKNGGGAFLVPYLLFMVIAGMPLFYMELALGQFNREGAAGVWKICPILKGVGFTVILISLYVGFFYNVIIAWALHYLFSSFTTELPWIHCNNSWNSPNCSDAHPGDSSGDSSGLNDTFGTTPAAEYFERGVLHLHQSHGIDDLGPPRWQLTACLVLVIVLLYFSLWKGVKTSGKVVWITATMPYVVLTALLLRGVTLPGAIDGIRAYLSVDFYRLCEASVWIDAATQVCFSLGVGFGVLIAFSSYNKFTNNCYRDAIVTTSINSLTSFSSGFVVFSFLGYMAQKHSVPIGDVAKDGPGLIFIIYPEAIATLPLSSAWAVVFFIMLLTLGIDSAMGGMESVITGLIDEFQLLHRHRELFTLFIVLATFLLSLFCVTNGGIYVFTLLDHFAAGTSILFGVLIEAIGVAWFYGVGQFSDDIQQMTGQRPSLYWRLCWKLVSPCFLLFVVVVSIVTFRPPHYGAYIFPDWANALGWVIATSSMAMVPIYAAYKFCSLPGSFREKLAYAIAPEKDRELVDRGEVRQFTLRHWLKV

Series 1
Target: UBE2W UBC core domain (UniProt Q96B02)
Method: yeast two-hybrid
Medium: yeast
Setting: mostly zero background
Reference: not given
Direction: higher = stronger interaction
Quantity: lacZ reporter activity
B1: TRIM26 RING domain (UniProt Q12899); chain PLRSLEEEVTCSICLDYLRDPVTIDCGHVFCRSCTTDVRPISGSRPVCPLCKKPFKKENIRP
B2: DEF8 RING domain (UniProt Q6ZN54); chain AGRLGCSLTEIHTLFAKHIKLDCERCQAKGFVCELCREGDVLFPFDSHTSVCADCSAVFHRDCYYDNSTTCPKCARLSLRK
B3: MKRN2 RING domain (UniProt Q9H000); chain FAFQASQDKVCSICMEVILEKASASERRFGILSNCNHTYCLSCIRQWRCAKQFENPIIKSCPECRVISEFVIPSV
B4: TRIM22 RING domain (UniProt Q8IYM9); chain VKVDIEKEVTCPICLELLTEPLSLDCGHSFCQACITAKIKESVIISRGESSCPVCQTRFQPGNLRP
Construct (chain): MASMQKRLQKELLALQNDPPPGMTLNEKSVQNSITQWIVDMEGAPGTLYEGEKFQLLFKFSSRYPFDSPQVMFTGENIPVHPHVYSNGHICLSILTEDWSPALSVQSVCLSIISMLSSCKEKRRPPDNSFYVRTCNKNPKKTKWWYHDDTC
B1 (TRIM26 RING domain): 0
B2 (DEF8 RING domain): 0
LDAASGHPLVCPLCHGQYERPCLLDCFHDFCTGCLRGRATDGRLSCPLCQHQTLVKGPSG (Rnf207 RING domain (UniProt Q3V3A7)): 0
B3 (MKRN2 RING domain): 0
B4 (TRIM22 RING domain): 0
MNDVLENELQCIICSEYFIEAVTLNCAHSFCSYCINEWMKRKIECPICRKDIKSKTYSL (RNF8 RING domain (UniProt O76064)): 0
RYRQMEERITCPICIDSHIRLVFQCGHGACAPCGSALSACPICRQPIRDRIQIF (MIB2 RING domain (UniProt Q96AX9)): 0
LGTKLEAKYLCSACRNVLRRPFQAQCGHRYCSFCLASILSSGPQNCAACVHEGIYEEGIS (TRAF2 RING domain (UniProt Q12933)): 0

Series 2
Target: Mamu-B*01 macaque
Observed: peptide-MHC binding
Molecule type: peptide
Concentration: concentration not given
Quantity: binding
ADDIVEKL: inactive
EDVVLVRI: inactive
IDDVTIKI: inactive

Series 3
Target: CCNE1, cyclin fold, Cln2 fusion (human)
Method: yeast growth competition, sequencing
Medium: yeast
Setting: strong parent motif
Reference: not given
Direction: higher = stronger binding
Quantity: normalised enrichment score
Parent: viral docking peptide; KGVKRKLFAEDSS; partner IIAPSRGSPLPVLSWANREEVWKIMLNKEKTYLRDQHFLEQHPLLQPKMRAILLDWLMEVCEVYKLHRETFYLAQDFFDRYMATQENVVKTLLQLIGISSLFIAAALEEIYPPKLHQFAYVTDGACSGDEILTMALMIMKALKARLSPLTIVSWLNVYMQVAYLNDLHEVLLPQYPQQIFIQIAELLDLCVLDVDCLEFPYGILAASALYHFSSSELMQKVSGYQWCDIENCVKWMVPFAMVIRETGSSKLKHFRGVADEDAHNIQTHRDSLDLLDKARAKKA
KGVKRKLFAEDFS [S12F]: 7.33
KGVKRKLFAEASS [D11A]: 7.29
KGVKRKLFVEDSS [A9V]: 7.61
KGVKRKLNAEDSS [F8N]: 0.305
KGVKRKLFKEDSS [A9K]: 7.03
KGVKAKLFAEDSS [R5A]: 0.504
KGVKRKCFAEDSS [L7C]: 0.517
KGVIRKLFAEDSS [K4I]: 7.63

Other studies, line by line
COc1ccc2c(c1)N(CCCN(C)C)c1ccccc1S2 — CC50 (HEK-293T/ACE2; 17.5 h): 58.1 µM
CCCOc1ccc([C@H]2[C@H](C(=O)O)[C@@H](c3ccc4c(c3)OCO4)CN2CC(=O)Nc2c(CC)cccc2CC)cc1 — inhibition (Sodium-dependent dopamine transporter (SLC6A3, Homo sapiens, UniProt Q01959); binding, radioligand binding; 10 µM): -20.1%
CN(C)CCCN1c2ccccc2Sc2ccc(Cl)cc21 — CC50 (HEK-293T/ACE2; 17.5 h): 26.6 µM

Repeated from above (series 1):
B1 (TRIM26 RING domain): 0
MNDVLENELQCIICSEYFIEAVTLNCAHSFCSYCINEWMKRKIECPICRKDIKSKTYSL (RNF8 RING domain (UniProt O76064)): 0
